Measurements gathered from unrelated publications.
Compare with care: the assays were run in different laboratories. Several values in a cell are separate wells, animals, samples, runs or records. ± gives the spread as reported.

CN(C)C(=O)c1cc2cnc(Nc3ccc(N4CCNCC4)cn3)nc2n1C1CCCC1 has an AUC(0-8h) of 20700 ng·h/mL (human, expansion cohort, plasma; oral, 800 mg, day 14, added: gemcitabine 1000 mg/m^2).
O=C(NCCc1cccnc1)c1ccc([C@H]2[C@@H](F)[C@@H](F)C[C@@H](F)[C@H]2F)cc1 has a hepatic clearance of 73 mL/min/kg (liver microsome stability; mouse liver microsomes; 1 µM).
FC(F)(F)c1ccc(CNc2ccc(Cc3c[nH]c4ncc(Cl)cc34)cn2)cn1: “treatment-related adverse events” 0% (item: Headache; patients with advanced solid tumours, non-TGCT cohort; oral, 1000 mg/day, grade 3 or higher).
Under “unbound brain concentration”, CCn1ncc2c1-c1cnc(N)c(c1)O[C@H](C)c1cc(F)ccc1-c1nn(C)nc1C2 is recorded as 5.5 ± 2.1 nM (female Balb/c nude mouse; 3 mg/kg twice daily, 6 h (tau/2), steady state).
Cc1nc2ccc(F)cc2n1-c1nc(N)c(F)c(Nc2ccc(C(F)(F)F)cc2)n1 has a dose-normalized Cmax of 6.3 ng/mL/mg (human patients, plasma; oral, 200 mg twice weekly, cycles 1 and 2 pooled).
With C[C@H]1C=C(Cc2ccccc2)C(=O)O1 the KFoc was 32 mL/g (clay soil; pH 7.3, organic carbon 5.6 %).
Cc1ccc(Sc2ccccc2N2CCNCC2)c(C)c1 — result for “participants with TEAE”: 0% (item: feeling abnormal; healthy adult women; oral, 5 mg daily, 12 days).
C=CC(=O)NC1CCN(c2ncc3ncnc(Nc4ccc(Oc5ccc6c(c5)ncn6C)c(C)c4)c3n2)CC1 — result for “adverse events incidence”: 0% (item: faeces hard; human male; oral, dose not given, AEs, treatment-related, on drug, CTCAE).
With Cc1ncc(CO)c(C(=O)O)c1O the AUC(0-8h) was 0.212 µM·h (human, plasma; dose not given, baseline geometric mean).
CC(C)C[C@H](NC(=O)C[C@H](O)[C@H](CC(C)C)NC(=O)[C@H](Cc1c[nH]cn1)NC(=O)CNC(=O)[C@@H](NC(=O)[C@H](C)NC(=O)[C@H](Cc1c[nH]c2ccccc12)NC(=O)[C@H](CCC(N)=O)NC(=O)[C@@H](Cc1ccccc1)NC(=O)COCCOCCNC(=O)CCC(C(=O)O)N1CCN(CC(=O)O)CCN(CC(=O)O)CCN(CC(=O)O)CC1)C(C)C)C(N)=O (some centres unmarked) [lutetium-177 labelled] gave a tissue uptake of 0.8 ± 0.3 %ID/g (BALB/c nu/nu mice, female, spleen; intravenous, 100 pmol, 30 min, time course 0.5 h, added: PA 300 µg).
O=C(Cn1ccnc1)Nc1ccc([C@H]2[C@@H](F)[C@@H](F)C[C@@H](F)[C@H]2F)cc1 has a hepatic clearance of 6.2 mL/min/kg (cryopreserved human hepatocytes; 1 µM).
For O=C(Nc1nc2cccc(-c3ccc(CN4CCS(=O)(=O)CC4)cc3)n2n1)C1CC1, “treatment-emergent adverse events” read 0% (item: hypercholesterolaemia; human rheumatoid arthritis patients; oral, 30 mg once daily, 4 weeks, regardless of relatedness).
For CCc1cc(C(=O)NC)c2nccc(N3CCc4c(cc(Cn5ccnc5)cc4-c4cn(C)nc4C(F)(F)F)C3=O)c2c1, the AUC extrapolated was 0% (CD-1 mouse, male, plasma; oral, 50 mg/kg).
For Cc1ccc(C(=O)N(CCCN)C(c2nc3snc(C)c3c(=O)n2Cc2ccccc2)C(C)C)cc1 (centres unmarked), “patients with CTCAE grade ≥3 events” read 100% (human patients; intravenous, 2 mg/day).
The TEAE incidence of C[C@@H](N)C1CCN(S(=O)(=O)c2cccc3cnccc23)CC1 is reported as 20% (item: Headache; healthy volunteers; 150 mg, fed).
With Cc1cc(C(=O)NC(C)(C)COc2cccc3c2C(N)=NS(=O)(=O)N3)cc(C)n1 the cytotoxicity was -4% (human peripheral blood lymphocytes; CBPI, concurrent micronucleus test; 2000 µg/mL, 4 h; baseline: vehicle control).
CC(C)(C(=O)N1CCOc2c(C#N)cncc2C1)C(F)F: “subjects with adverse event” 0% (item: Gastrointestinal disorders; human; oral, 20 mg twice daily, 14 days, multiple ascending dose).
O=C(Nc1cnccc1Cl)N1CCN(Cc2ccc3c(c2)OC(F)(F)O3)CC1: “hepatic enzyme increased” 0% (multiple ascending dose; young men; 25 mg, treatment-emergent adverse events).
Under “patients with TEAE”, Cc1cc(NC2CCN(C(=O)OC3CCN(C(=O)/C=C/CN(C)C)C3)CC2)n2ncc(C(C)C)c2n1 (centres unmarked) is recorded as 0% (CTCAE v4.0, item: Hypomagnesemia; patients with advanced solid tumours; oral, dose not given, TIW, grade 3 or higher).
For CC(=O)O[C@H]1C(=O)[C@@]2(C)[C@H]([C@H](OC(=O)c3ccccc3)[C@]3(O)C[C@H](OC(=O)[C@H](O)[C@@H](NC(=O)c4ccccc4)c4ccccc4)C(C)=C1C3(C)C)[C@]1(OC(C)=O)CO[C@@H]1C[C@@H]2O, “adverse event incidence” read 22% (item: Vomiting; patients with advanced solid tumours; intravenous, dose not given, grade 1 and 2, possibly related to drug).
The hepatic clearance of CN(Cc1cccnc1)C(=O)c1ccc([C@H]2[C@@H](F)[C@@H](F)C[C@@H](F)[C@H]2F)cc1 is reported as 38 mL/min/kg (hepatocyte stability; cryopreserved rat hepatocytes; 1 µM).
O=C(O)CCC(=O)O.[2H]C([2H])([2H])Oc1cc(C)c2[nH]ccc2c1CN1CC[C@@H](C2CC2)C[C@H]1c1ccc(C(=O)O)cc1 — result for “TEAE elevated blood triglycerides”: 50% (healthy Chinese subjects; 400 mg, single ascending dose).
Cc1cc(C)c(CNC(=O)c2cc(Cl)c3c(c2C)O[C@@](C)([C@H]2CC[C@H](N(C)C)CC2)O3)c(=O)[nH]1: “share of plasma radioactivity” 95.9% (human, plasma; oral, 200 mg, up to 0008 (unit not given)).
For O=c1[nH]cc([C@@H]2O[C@H](CO)[C@@H](O)[C@H]2O)c(=O)[nH]1, “serum protein binding” read < 24% (ultrafiltration; normal rat serum; 37 °C).
N[C@@H](C[18F])C(=O)O gave a muscle uptake of 0.56 ± 0.36 %ID/cc (PET; athymic nude mouse; intravenous, 90 min).
COc1cccc2c1C(=O)c1c(O)c3c(c(O)c1C2=O)C[C@@](O)(C(=O)CO)C[C@@H]3O[C@H]1C[C@H](NC(=O)[C@@H]2CCCN2C(=O)CN)[C@H](O)[C@H](C)O1 gave an AUC of 1.89 µM·h (healthy mouse, plasma; intravenous, 849.5 mg/kg PhAc-ALGP-Dox).
Under “dP/dt at 50 change”, CNCCOC12CC3(C)CC(C)(CC(Cn4ncc(-c5ccc(N6CCc7cccc(C(=O)Nc8nc9ccccc9s8)c7C6)nc5C(=O)O)c4C)(C3)C1)C2 is recorded as 1% (beagle dog, male, anaesthetised; intravenous bolus, 0.03 mg/kg, 45 min; baseline: baseline).
CNCc1ccc(-c2[nH]c3cc(F)cc4c3c2CCNC4=O)cc1 — result for “incidence of neutropenia”: 17.9% (human patients; oral, dose not given, all grades, all doses).
The AUCinf increase of COC(=O)N[C@@H](C)CNc1nccc(-c2cn(C(C)C)nc2-c2cc(Cl)cc(NS(C)(=O)=O)c2F)n1 is reported as ~83% and 83% and ~80% (human, plasma; oral, 50 mg, single dose, geometric mean, added: diltiazem; baseline: compound alone).
CCOc1c([C@H](C)n2nc(C)c3c(N)ncnc32)cc(Cl)c(F)c1[C@@H]1CNC(=O)C1 gave a Cmin of 178 ± 141 nM (patients, monotherapy; oral, 20 mg once daily, cycle 1 day 15).
NS(=O)(=O)c1cc(C(=O)O)c(NCc2ccco2)cc1Cl — result for “subjects with adverse event”: 0% (item: infections and infestations; healthy men; oral, 8 days, treatment-emergent, crossover trial).
For O=C(O)c1cccc(C(=O)O)c1, “apparent dissolution enthalpy” read 2.54 kcal/mol (betaine/propylene glycol DES-water; DES mass fraction 0.60).
CCN1CCN(Cc2ccc(NC(=O)c3ccc(C)c(NC(=O)c4cncc(-c5cccs5)c4)c3)cc2C(F)(F)F)CC1: “mean plasma concentration” 114 ng/mL (LC-MS/MS; C57BL/6 mouse, plasma; intraperitoneal, 30 mg/kg single dose, 8 h).
Cc1cc(Nc2ccc(S(F)(F)(F)(F)F)cc2)n2nc(C(C)(F)F)nc2n1 — result for “patients with QTcB increase”: 0% (Plasmodium vivax; 12-lead ECG; malaria patients; oral, 400 mg, increase above 60 ms).
For CN1CCN(C(=O)[C@H](CCCN[C@@H]2C[C@H]2c2ccc(F)cc2)NC(=O)c2ccc(-n3ccnn3)cc2)CC1, monocyte count read “increased” (Sprague-Dawley rats; 20 mg/kg/day, 7 days, reversibility after two 7-day cycles).
For C=CCn1c(=O)c2cnc(Nc3ccc(N4CCN(C)CC4)cc3)nc2n1-c1cccc(C(C)(C)O)n1, the AUC(0-10 h) was 5.02 µM·h (human patients; oral, 150 mg twice daily, day 17, cycle 1, added: durvalumab 1500 mg iv).
The concentration of CCc1c(-c2ccccc2)c(-c2ccccc2)nn1-c1ccccc1-c1cccc(OCC(=O)O)c1 is reported as 745 ng/mL and 502 ng/mL (Sprague-Dawley rat, -Kidney homogenate; oral, 10 mg/kg, 1 h).
For CCN1/C(=C/C(C)=O)Sc2ccc(F)cc21, “mean blood pressure change” read 96.9 ± 5.6% (cynomolgus monkey; oral, 30 mg/kg, 1 h post-dose; baseline: pre-dose).
Nc1cccc2ccc(/C=C/C(=O)c3ccc(O)cc3)cc12 gave an excitation maximum of 411 nm (toluene; 20 °C).
C=CC(=O)NC1CCN(c2ncc3ncnc(Nc4ccc(Oc5ccc6c(c5)ncn6C)c(C)c4)c3n2)CC1 — result for “dose excreted unchanged”: 31.6% (healthy male volunteers, urine and faeces; oral, 60 mg, 14C-labelled).
The hepatic clearance of O=C(NCc1cc[nH]n1)c1ccc([C@H]2[C@@H](F)[C@@H](F)C[C@@H](F)[C@H]2F)cc1 is reported as 9.4 mL/min/kg (liver microsome stability; dog liver microsomes; 1 µM).
Under “subjects with Nausea TEAEs”, Cc1cc(-c2nccc3c2ccn3CC(=O)Nc2ccc(-c3cnccn3)cn2)ccn1 is recorded as 0% (human; SAD part, single 20 mg dose).
O=C(c1ccc(C2CCCCC2)cc1)N1CC(O)C1 gave a hepatic clearance of 50 mL/min/kg (liver microsome stability; rat liver microsomes; 1 µM).
Cn1cc(-c2ccc(-c3cncc(Cl)c3N3CCC4(CCNC4=O)CC3)cc2)cn1: “log2 fold change” 2.15 (COLO 205; gene expression, microarray, item: KCNN4 mRNA; concentration not given, 6 h; baseline: untreated cells).
CC(=O)N1CC(C(=O)Nc2ccc([C@H]3[C@@H](F)[C@@H](F)C[C@@H](F)[C@H]3F)cc2)C1 gave a hepatic clearance of 10 mL/min/kg (hepatocyte stability; cryopreserved rat hepatocytes; 1 µM).
Under “observed accumulation ratio”, Cn1cc(-c2cn3nccc3c(-c3cnn([C@]4(CC#N)C[C@@H](C#N)C4)c3)n2)cn1 is recorded as 1.1 (healthy humans fed, plasma; oral, 30 mg once daily, day 10, geometric mean; baseline: day 10 over day 1).
The hepatic clearance of O=C(COCC(F)F)Nc1ccc(C2CCCCC2)cc1 is reported as 18 mL/min/kg (liver microsome stability; human liver microsomes; 1 µM, without NADPH).
NC1(C(=O)N[C@@H](CCO)c2ccc(Cl)cc2)CCN(c2nc[nH]c3nccc2-3)CC1 — result for “incidence of Pyrexia”: 14.3% (metastatic CRPC patients; 400 mg b.i.d., any grade, treatment-related, added: enzalutamide 160 mg daily).
With O=C(CC1CCOCC1)Nc1ccc(C2CCCCC2)cc1 the hepatic clearance was 36 mL/min/kg (cynomolgus liver microsomes; 1 µM).
For CSCC[C@H](N)C(=O)N[C@H](CC(C)C)C(=O)N[C@@H](CCCNC(=N)N)C(=O)N[C@@H](Cc1c[nH]c2ccccc12)C(=O)N[C@@H](CO)C(=O)N[C@@H](CCCNC(=N)N)C(=O)N[C@@H](CCCCN)C(=O)N[C@@H](CC(C)C)C(=O)N1CCC[C@H]1C(=O)N[C@@H](CS)C(=O)N[C@H](C(=O)N[C@@H](CO)C(N)=O)C(C)C, the remaining activity was 45 ± 5% (12G5 competition, SUP-T1 cells; human plasma; 20 µM, 8 h, 37 °C).

For quick reference, copied from above:
The hepatic clearance of O=C(COCC(F)F)Nc1ccc(C2CCCCC2)cc1 is reported as 18 mL/min/kg (liver microsome stability; human liver microsomes; 1 µM, without NADPH).
For Cc1ccc(C(=O)N(CCCN)C(c2nc3snc(C)c3c(=O)n2Cc2ccccc2)C(C)C)cc1 (centres unmarked), “patients with CTCAE grade ≥3 events” read 100% (human patients; intravenous, 2 mg/day).
FC(F)(F)c1ccc(CNc2ccc(Cc3c[nH]c4ncc(Cl)cc34)cn2)cn1: “treatment-related adverse events” 0% (item: Headache; patients with advanced solid tumours, non-TGCT cohort; oral, 1000 mg/day, grade 3 or higher).
For O=C(O)c1cccc(C(=O)O)c1, “apparent dissolution enthalpy” read 2.54 kcal/mol (betaine/propylene glycol DES-water; DES mass fraction 0.60).
Nc1cccc2ccc(/C=C/C(=O)c3ccc(O)cc3)cc12 gave an excitation maximum of 411 nm (toluene; 20 °C).
Cc1nc2ccc(F)cc2n1-c1nc(N)c(F)c(Nc2ccc(C(F)(F)F)cc2)n1 has a dose-normalized Cmax of 6.3 ng/mL/mg (human patients, plasma; oral, 200 mg twice weekly, cycles 1 and 2 pooled).
The TEAE incidence of C[C@@H](N)C1CCN(S(=O)(=O)c2cccc3cnccc23)CC1 is reported as 20% (item: Headache; healthy volunteers; 150 mg, fed).
